Experimental data from different studies.
Every numbered part comes from another study and shows a few of its results, in no order. Substitutions count along the parent as printed.

Set 1 — effect on: peptide-MHC binding; form: peptide; tested at: concentration not given; endpoint: binding
Target: HLA class I histocompatibility antigen, A alpha chain, allele A*26:03 (Homo sapiens, UniProt P04439)
RFRCVGPAP: inactive
RMIESRMSK: inactive
RWRVYLRRK: inactive
ALYLLDGLR: inactive
INTLESMMK: inactive
EIEIEKNKK: inactive
SHEQGDIAL: inactive
TLYCVHQEI: inactive
YMYAVSGAL: inactive
SEVKFKYVL: inactive
WMACHSAAF: inactive
YERGNIIIF: inactive
KSLFNTVATLY: inactive
SIPQDGAKM: inactive

Set 2 — technique: competition protein-binding microarray; form: double-stranded DNA, one strand shown; medium: in vitro; tested at: 2 µM; with: Pho4 competitor, 0.05 µM; direction: higher = stronger binding; endpoint: fluorescence intensity; shared flanks, not repeated: … GTCTTGATTCGCTTGACGCTGCTG
Target: Centromere-binding protein 1, full length, His-tagged (CBF1, Saccharomyces cerevisiae, UniProt P17106, residues 1-351)
Sequence of UniProt P17106 (whole entry, looked up): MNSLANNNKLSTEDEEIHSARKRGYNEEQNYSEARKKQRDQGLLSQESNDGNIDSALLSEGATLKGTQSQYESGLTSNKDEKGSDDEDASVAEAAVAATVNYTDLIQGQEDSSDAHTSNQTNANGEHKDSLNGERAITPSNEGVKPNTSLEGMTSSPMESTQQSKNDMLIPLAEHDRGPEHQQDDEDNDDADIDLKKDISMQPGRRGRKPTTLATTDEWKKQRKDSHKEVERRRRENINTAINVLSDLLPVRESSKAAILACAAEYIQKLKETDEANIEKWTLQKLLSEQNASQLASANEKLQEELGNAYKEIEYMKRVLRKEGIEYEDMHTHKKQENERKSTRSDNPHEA
Notes: whole 60-bp probe, lowest competitor level
CTTCTGTAAATTTGATGTGTGGGTGGACGCGCCCCG: 104 a.u.
CTAACGAAGGTTTGGCGAGTGGGTGACAAGCCAAGT: 66.1 a.u.
CGACCCAGTTGTACGAGGCAACAGGCCCGACTTCAC: 69.2 a.u.
TTGCGGGTTACAAAGCACGGGTCCATTGAAGATCTT: 98 a.u.
GCCACATCCTTTACCCACGTGCTTTTTTAGCCAGAC: 1230 a.u.
TAGTTGCATCATCGACACATGCAATATCAAAAGTAA: 100 a.u.
GTATAGTATCCACTTCGTGTGACAGTACTATAATCG: 99.3 a.u.
AACAACCGCCTCGACCACGCACCAAAGAGCTGTTAA: 56.5 a.u.

Set 3 — technique: RNA Bind-n-Seq; form: RNA; medium: in vitro; tested at: 365 nM; reference: no-protein control; direction: higher = stronger binding; endpoint: RBNS enrichment (R)
Target: RNA binding protein fox-1 homolog 2, RRM domain, GST-SBP tag (RBFOX2, Homo sapiens, UniProt O43251-10, residues 100-194)
Notes: natural RNA segment, single round, ends assumed
Shared flanks, not repeated: GGGAGUUCUACAGUCCGACGAUC … UGGAAUUCUCGGGUGCCAA
Residues (chain): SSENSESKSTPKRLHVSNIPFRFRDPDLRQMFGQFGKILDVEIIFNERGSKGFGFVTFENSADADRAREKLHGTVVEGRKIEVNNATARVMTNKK
GAGCCCCUGCUCCCAGAUCCCUCUGAACCGCCGAGCAACAGCAAAACUAUGUGACAACACUUCUCCGCAUAAAGGUUAUGGUGCCCUAGGCAGUGACAUAUGGCCUCAGG: 0.455
ACAAUUCUUUAGCAGUGGACAGAACCCUUAAAUUCUAAAAAGCUACAAACAUCAAGCAAUUCAGGUACUAGGAUAACAUGUCAGUUUUGCUGGGUUGGAGGUGGGUAUCA: 0.324
ACAUGCCACCCCCUCAGAGGACGUCAGUUCAGGGCACGUCUCAAUAUGAGUCAAGUGCCAGCUGGACCUGAGGCCUGCUUCCCCGCGUGCGGGGCAGAGGCCCUUCUCUG: 0.18
GAUCUACCAGCAAAUGAGGGCGAACAGCUAAUCCACGUGGCUUUGUCCCAGACUUCCUUUGUCUUCAACAACCUUCUGCAAGAAAACCAAGGGCCUGAAUUUUAACUUCC: 0.587
UCCAUCUGCACACACCCCCAAGGUAAGGGUACAGCCCGGCUGGCGGCCUCCUUGGGAACGUGUAGGCCACGGCUCUGCCACCACUAGGUACCUGCUGAGGGCGCUGGCUC: 0.339
CCCGUGGGUCAAGCAUUUGUCUUGACUUGCUUUCCUCCCGGGUCUCCAGCCUCCGACCCCUCGCCCCAUGAAGGAGCUGGCAGGUGGAAAUAAACAACAACUUUAUUAAA: 0.303
GGCUCACUGCAAACUCCGCCUCCCAGGUUCAAGCGAUUCUCCCACCUCAGCCUCCUGAGUUGGGUCCUACAGGCGCACACGACCACGCCCAGCUAAUUUUUUGUAUUUUU: 0.437
AUUUCCUGGGAAAUUUUGGUCAAAAGCCAGCUUCUUUUGCUGUCUUUAAUAAGAAAAACUUGAAGUUUAGGAGCUUAAAAGACUUAGCCUGAGGCAGAAGGAGGUGAGCA: 2.97

Set 4 — target: CCNF, cyclin fold, Cln2 fusion (human); technique: yeast growth competition, sequencing; medium: yeast; notes: strong parent motif; reference: not given; direction: higher = stronger binding; endpoint: normalised enrichment score
Parent: viral docking peptide; CKVKRKLFGSENI; partner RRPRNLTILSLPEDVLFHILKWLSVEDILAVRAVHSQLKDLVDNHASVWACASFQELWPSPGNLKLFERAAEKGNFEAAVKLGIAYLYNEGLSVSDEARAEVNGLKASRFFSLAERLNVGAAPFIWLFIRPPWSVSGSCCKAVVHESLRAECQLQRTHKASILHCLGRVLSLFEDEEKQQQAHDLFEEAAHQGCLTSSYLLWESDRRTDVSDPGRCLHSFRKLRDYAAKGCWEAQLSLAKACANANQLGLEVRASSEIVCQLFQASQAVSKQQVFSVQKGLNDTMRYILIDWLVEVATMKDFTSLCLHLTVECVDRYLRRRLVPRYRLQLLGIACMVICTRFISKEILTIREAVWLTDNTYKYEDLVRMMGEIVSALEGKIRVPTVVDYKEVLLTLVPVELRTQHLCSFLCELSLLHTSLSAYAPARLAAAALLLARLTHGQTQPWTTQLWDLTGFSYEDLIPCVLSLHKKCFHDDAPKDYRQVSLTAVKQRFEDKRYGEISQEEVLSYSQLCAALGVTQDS
L7A: 2.05
N12A: 7.32
F8A: 0.87
R5A: 1.28
R5K: 4.14
K2A: 8.11
I13A: 8.11
R5A L7A: 0.484
S10A: 8.69

A few entries again (set 1):
TLYCVHQEI: inactive
SHEQGDIAL: inactive
